Assay results of several laboratories.
Numbered parts are unrelated; each lists some results of a single study.

Sample 1 — method: protein binding microarray; molecule type: double-stranded DNA, one strand shown; matrix: in vitro; concentration: not given; relative to: not given; direction: higher = stronger binding; quantity: E-score
Target: Histone acetyltransferase KAT6A, winged helix 1, GST fusion (KAT6A, Homo sapiens, UniProt Q92794, residues 1-85)
Notes: 8-mer, flanks averaged, mean of 2 arrays, mostly near background
Residues (chain): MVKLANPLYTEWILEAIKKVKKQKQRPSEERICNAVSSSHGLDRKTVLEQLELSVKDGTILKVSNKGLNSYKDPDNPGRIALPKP
Strand = AATCCCCA; value = -0.252
Strand = ACGAATTG; value = -0.148
Strand = GACATAGA; value = -0.0941

Sample 2 — method: aptamer microarray, sandwich; molecule type: DNA with 2'F-ANA; matrix: in vitro; concentration: 200 nM; added: Cy3 exosite-II aptamer, 400 nM; direction: higher = stronger binding; quantity: mean fluorescence intensity; strand: GGTTGGTGTGGTTGG
Target: Prothrombin, mature alpha-thrombin (F2, Homo sapiens, UniProt P00734)
Notes: whole 15-mer aptamer, many near background
Modification = 2'F-ANA at 2 3 4 5 7 8 10 13 14; value = 47.7 a.u.
Modification = 2'F-ANA at 2 3 4 5 6 9 10 11 15; value = 52.6 a.u.
Modification = 2'F-ANA at 2 3 4 6 7 8 11 13; value = 436 a.u.
Modification = 2'F-ANA at 3 5 10 11 12 13 15; value = 83.2 a.u.
Modification = 2'F-ANA at 3 5 11 12 13 15; value = 187 a.u.
Modification = 2'F-ANA at 5 7 10 12 14; value = 79.4 a.u.

Sample 3 — method: protein-binding microarray; molecule type: double-stranded DNA, one strand shown; matrix: in vitro; concentration: 940 nM top; notes: 60-bp whole probe; added: salmon DNA 0.4 mg/ml; relative to: random background probes; direction: higher = stronger binding; quantity: fitted relative affinity
Target: Interferon regulatory factor 5, full length, phosphomimetic (IRF5, Homo sapiens, UniProt Q13568-2, residues 1-514, S451D/S453D/S456D/S462D)
Strand = GCCTAGCACTTAGATTTCAGGTTCGATTAGTGCTAGGTCTTGATTCGCTTGACGCTGCTG; value = 0.717 z-score
Strand = GCCTAGCACGATGGTTTCCTTTCCCTGACGTGCTAGGTCTTGATTCGCTTGACGCTGCTG; value = 2.57 z-score
Strand = GCCTAGCACTCAATCCTTCATTTGAAACTGTGCTAGGTCTTGATTCGCTTGACGCTGCTG; value = -0.131 z-score

Mixed results
Molecule = PhoQ, residues 284 288 289 292 302 303 MLMVEA; target = PhoP, residues 12 14 15 18 19 LYFRQ (Escherichia coli, UniProt P23836); assay = Sort-seq, refers to: YFP reporter; system = E. coli; setting = PhoQ-PhoP variant library, added: 10 µM Mg2+; how to read = relative to: high Mg2+ state, higher = stronger signaling; quantity = fold induction; value = 5.31

Excerpt of the above (sample 3):
Strand = GCCTAGCACTTAGATTTCAGGTTCGATTAGTGCTAGGTCTTGATTCGCTTGACGCTGCTG; value = 0.717 z-score
Strand = GCCTAGCACGATGGTTTCCTTTCCCTGACGTGCTAGGTCTTGATTCGCTTGACGCTGCTG; value = 2.57 z-score
